Measured values from different studies.
Values joined by “and” are separate records of one study, mostly repeats; a detail may differ. ± gives the spread as reported.
Target: Casein kinase I isoform alpha (CSNK1A1, Homo sapiens, UniProt P48729)
Chain of UniProt P48729 (whole entry, looked up): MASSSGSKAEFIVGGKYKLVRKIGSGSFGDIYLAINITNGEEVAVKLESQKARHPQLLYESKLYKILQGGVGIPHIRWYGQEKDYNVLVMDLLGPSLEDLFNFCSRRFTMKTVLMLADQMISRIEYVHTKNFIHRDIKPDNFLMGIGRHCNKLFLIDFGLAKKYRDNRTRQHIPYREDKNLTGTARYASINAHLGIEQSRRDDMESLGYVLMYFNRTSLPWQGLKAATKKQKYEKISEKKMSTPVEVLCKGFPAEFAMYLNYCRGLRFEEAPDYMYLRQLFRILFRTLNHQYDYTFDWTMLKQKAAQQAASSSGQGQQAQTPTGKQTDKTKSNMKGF

C=CC(=O)N1CCC([C@@H]2CCNc3c(C(N)=O)c(-c4ccc(Oc5ccccc5)cc4)nn32)CC1 — remaining activity (kinase activity, inhibitor, HotSpot radiometric; 100 nM, together with: ATP 10 µM): 106%
C=CC(=O)N1CCC(COCC(=O)N2CCN(c3nc(-c4cnc(N)nc4C(F)F)nc(N4CCOC[C@@H]4C)n3)CC2)CC1 — remaining binding (KINOMEscan; 1 µM): 97%
CNc1ncc2c(/C=C/C(=O)N3CCC(OC)CC3)nn(Cc3cccc(C(F)(F)F)c3)c2n1 — remaining activity (kinase activity, inhibitor; 1 µM; relative to: untreated control): 100%
Fc1ccc(-c2nc3cc(F)ccn3c2-c2ccncc2)cc1 — remaining activity (kinase activity, inhibitor, ADP-Glo; 0.574 µM, 0.5 h): 19.6% and 36.6%
c1ccc(-c2occc2-c2ccnc3ccccc23)nc1 — selectivity ratio (enzyme activity, ADP-Glo; relative to: IC50 over Yck2 IC50): > 5
CC[C@@H]1[C@H](F)C(=O)N[C@@H]1COc1nccc2cc(C(N)=O)c(OC)cc12 — inhibition (ATP probe binding, KiNativ profiling, measured: Lys2 probe site; THP-1 cell lysate; 0.04 mM): -2.5%
c1coc(-c2n[nH]cc2-c2ccnc3ccccc23)c1 — selectivity ratio (enzyme activity, ADP-Glo; relative to: IC50 over Yck2 IC50): 5
COc1ccc(F)cc1C(=O)NCc1ccc(-c2nn([C@@H](C)C(F)(F)F)c(N)c2C(N)=O)cc1 — remaining activity (kinase activity, inhibitor, HotSpot radiometric; 1000 nM, together with: ATP at Km): 98.8 ± 4.1%
c1ccc(-c2n[nH]cc2-c2ccncn2)nc1 — selectivity improvement (enzyme activity; relative to: LY selectivity fungal over CSNK1A1): 5 fold
Fc1ccc(-c2nn3cc(F)ccc3c2-c2ccncc2)cc1 — remaining activity (kinase activity, inhibitor, ADP-Glo; 0.273 µM, 0.5 h): 67.7% and 62.8%
CC#CC(=O)N1CCC[C@H]1c1nc(-c2ccc(C(=O)Nc3ccccn3)cc2)c2c(N)nccn12 — remaining activity (kinase activity, inhibitor, HotSpot radiometric; 100 nM, together with: ATP 10 µM): 102 ± 2.3%
c1ccc(Cc2[nH]nc(-c3ccccn3)c2-c2ccnc3ccccc23)cc1 — selectivity ratio (enzyme activity, ADP-Glo; relative to: IC50 over Yck2 IC50): 1

Some of these lines once more:
c1ccc(Cc2[nH]nc(-c3ccccn3)c2-c2ccnc3ccccc23)cc1 — selectivity ratio (enzyme activity, ADP-Glo; relative to: IC50 over Yck2 IC50): 1
